Measured values gathered from unrelated publications.
Each numbered part is a random draw from the data of one study; scales do not carry over between parts.
Chain of UniProt Q00537 (whole entry, looked up): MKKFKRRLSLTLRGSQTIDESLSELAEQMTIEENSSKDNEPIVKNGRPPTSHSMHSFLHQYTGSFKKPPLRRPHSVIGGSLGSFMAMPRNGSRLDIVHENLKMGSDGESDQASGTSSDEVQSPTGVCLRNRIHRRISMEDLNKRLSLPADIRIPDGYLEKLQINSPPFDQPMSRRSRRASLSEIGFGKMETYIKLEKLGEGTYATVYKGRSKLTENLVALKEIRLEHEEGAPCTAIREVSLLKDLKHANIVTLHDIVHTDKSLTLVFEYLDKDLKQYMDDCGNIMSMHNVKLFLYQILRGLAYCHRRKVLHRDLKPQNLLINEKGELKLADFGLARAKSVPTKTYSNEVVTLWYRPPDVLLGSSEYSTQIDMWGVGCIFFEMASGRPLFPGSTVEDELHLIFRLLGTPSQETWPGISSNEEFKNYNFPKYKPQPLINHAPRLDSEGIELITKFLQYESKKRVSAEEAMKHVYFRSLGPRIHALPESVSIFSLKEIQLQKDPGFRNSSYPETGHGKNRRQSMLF
Chain of UniProt Q15759 (whole entry, looked up): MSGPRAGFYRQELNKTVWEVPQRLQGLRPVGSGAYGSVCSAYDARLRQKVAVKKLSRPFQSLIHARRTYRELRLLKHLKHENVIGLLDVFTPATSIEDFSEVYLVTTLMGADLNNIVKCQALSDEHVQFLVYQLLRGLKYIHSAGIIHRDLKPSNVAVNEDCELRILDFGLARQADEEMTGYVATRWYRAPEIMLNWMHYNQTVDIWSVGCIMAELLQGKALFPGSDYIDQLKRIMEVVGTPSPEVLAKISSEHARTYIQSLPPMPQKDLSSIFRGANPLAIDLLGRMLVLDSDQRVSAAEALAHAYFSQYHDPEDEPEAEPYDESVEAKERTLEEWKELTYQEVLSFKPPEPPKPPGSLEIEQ
Chain of UniProt P29597 (whole entry, looked up): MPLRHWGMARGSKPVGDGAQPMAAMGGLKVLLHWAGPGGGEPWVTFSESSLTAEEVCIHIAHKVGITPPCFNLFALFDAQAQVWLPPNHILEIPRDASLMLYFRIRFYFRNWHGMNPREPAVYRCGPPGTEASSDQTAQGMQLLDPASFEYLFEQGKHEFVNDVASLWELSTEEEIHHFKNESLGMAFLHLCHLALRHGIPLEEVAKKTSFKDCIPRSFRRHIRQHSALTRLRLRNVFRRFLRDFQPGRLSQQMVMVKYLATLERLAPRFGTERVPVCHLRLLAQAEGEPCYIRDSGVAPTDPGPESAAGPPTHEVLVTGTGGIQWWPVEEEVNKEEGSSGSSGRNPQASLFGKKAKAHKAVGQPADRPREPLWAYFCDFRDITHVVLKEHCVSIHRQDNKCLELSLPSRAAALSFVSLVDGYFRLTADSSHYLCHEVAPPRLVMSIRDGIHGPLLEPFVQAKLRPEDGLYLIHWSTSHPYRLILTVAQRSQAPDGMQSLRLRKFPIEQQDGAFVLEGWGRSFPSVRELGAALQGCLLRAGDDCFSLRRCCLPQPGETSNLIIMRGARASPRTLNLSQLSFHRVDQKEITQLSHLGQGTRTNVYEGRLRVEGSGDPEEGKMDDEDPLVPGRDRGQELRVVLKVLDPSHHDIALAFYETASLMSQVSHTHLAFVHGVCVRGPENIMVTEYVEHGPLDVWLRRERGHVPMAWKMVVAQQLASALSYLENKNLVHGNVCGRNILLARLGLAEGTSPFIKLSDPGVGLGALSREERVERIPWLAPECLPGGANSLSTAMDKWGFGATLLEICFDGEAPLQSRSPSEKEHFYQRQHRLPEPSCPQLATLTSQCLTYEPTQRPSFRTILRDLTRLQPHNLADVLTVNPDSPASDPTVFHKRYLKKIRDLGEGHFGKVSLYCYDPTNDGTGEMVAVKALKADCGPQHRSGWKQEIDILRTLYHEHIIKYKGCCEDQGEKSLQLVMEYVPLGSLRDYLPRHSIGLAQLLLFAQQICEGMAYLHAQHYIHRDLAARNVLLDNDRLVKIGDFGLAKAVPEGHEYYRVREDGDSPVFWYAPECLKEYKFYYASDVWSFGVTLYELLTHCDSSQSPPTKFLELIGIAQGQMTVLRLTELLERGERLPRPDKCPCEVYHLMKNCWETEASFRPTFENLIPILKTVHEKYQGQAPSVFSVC
Chain of UniProt Q13873 (whole entry, looked up): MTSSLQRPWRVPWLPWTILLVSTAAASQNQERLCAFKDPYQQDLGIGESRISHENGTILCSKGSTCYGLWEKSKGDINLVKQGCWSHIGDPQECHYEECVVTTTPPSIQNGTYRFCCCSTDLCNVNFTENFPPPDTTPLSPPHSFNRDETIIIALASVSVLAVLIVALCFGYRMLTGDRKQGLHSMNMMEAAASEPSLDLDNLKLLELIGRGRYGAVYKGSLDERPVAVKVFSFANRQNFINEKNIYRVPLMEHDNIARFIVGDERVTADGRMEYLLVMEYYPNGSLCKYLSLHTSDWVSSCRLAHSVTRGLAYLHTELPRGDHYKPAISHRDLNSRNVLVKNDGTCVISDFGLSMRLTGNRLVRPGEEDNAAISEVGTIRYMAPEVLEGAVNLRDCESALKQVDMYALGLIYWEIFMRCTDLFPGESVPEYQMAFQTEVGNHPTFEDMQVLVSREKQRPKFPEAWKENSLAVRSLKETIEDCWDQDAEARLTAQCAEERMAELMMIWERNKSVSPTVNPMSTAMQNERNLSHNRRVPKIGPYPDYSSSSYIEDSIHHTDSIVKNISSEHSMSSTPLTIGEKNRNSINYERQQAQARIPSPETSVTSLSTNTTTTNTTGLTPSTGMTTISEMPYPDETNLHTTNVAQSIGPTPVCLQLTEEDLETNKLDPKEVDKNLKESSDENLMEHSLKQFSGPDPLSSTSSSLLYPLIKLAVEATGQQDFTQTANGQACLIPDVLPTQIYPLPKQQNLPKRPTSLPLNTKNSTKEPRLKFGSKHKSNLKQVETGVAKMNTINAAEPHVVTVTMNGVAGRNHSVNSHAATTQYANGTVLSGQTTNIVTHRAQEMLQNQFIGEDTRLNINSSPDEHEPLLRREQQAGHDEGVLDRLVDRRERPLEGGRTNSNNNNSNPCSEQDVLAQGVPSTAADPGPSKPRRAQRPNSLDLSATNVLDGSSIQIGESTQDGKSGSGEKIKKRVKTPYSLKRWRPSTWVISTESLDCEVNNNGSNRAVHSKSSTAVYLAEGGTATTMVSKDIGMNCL
Chain of UniProt Q9NSY1 (whole entry, looked up): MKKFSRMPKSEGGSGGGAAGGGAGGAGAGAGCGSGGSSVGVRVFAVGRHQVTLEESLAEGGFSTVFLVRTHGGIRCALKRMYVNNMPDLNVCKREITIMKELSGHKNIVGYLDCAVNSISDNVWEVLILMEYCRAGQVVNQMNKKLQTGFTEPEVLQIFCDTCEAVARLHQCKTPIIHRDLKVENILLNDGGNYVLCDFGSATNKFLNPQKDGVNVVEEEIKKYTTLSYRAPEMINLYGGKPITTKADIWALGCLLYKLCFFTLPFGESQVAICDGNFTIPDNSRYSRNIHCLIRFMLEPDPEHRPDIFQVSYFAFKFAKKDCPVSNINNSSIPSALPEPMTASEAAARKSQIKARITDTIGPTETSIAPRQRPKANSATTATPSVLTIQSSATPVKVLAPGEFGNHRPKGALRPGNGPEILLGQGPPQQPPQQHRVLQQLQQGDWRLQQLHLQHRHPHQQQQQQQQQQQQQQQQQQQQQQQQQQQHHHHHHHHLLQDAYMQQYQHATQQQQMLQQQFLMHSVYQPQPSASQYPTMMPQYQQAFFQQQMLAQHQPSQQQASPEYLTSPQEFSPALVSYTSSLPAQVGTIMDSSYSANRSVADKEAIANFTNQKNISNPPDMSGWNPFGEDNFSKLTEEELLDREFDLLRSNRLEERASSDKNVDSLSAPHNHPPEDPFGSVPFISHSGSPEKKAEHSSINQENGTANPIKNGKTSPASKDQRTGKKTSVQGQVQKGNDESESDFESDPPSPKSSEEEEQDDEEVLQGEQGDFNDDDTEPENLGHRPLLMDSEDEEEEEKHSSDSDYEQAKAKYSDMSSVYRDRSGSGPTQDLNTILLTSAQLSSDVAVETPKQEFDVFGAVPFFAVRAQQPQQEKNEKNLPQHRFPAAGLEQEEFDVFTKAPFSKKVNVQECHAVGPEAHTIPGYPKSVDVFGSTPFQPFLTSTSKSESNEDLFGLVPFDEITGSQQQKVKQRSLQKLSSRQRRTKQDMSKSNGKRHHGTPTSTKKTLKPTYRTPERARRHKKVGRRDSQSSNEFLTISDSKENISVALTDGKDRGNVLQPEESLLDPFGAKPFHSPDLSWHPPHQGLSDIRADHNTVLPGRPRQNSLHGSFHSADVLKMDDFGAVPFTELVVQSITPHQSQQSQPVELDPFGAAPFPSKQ
Chain of UniProt Q6P3R8 (whole entry, looked up): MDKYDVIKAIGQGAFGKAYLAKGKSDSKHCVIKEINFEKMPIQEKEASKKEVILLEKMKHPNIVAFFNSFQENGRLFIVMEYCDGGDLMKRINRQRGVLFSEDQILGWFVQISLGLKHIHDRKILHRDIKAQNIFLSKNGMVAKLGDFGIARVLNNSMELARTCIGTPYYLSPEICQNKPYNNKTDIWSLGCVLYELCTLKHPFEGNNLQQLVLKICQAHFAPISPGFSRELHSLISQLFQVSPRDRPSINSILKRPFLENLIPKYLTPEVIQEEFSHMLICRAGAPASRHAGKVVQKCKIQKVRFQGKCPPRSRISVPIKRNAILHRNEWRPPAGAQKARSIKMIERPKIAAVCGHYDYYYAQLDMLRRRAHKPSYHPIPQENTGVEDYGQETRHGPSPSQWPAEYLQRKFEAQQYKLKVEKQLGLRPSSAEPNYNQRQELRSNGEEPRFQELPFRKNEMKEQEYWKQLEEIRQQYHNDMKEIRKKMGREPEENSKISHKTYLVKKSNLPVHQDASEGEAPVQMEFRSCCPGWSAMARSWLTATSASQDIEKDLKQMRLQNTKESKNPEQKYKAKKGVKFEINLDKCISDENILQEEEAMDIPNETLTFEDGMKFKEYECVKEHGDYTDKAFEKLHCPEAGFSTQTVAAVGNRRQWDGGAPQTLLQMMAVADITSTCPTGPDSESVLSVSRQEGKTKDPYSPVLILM

Study 1 — read-out: cell-free assay; method: competition with immobilised ligand; concentration: 1 µM; endpoint: remaining binding
Structure (SMILES): CN(C(=O)c1ccccc1)c1cc(N(C)c2ccc3c(c2)CCc2ccc(C(=O)NCCN4CCOCC4)cc2C3=O)ccc1F
RAC-beta serine/threonine-protein kinase (AKT2, Homo sapiens, UniProt P31751): 95%
Bone morphogenetic protein receptor type-2 (BMPR2, Homo sapiens, UniProt Q13873): 100%
Maternal embryonic leucine zipper kinase (MELK, Homo sapiens, UniProt Q14680): 100%
Serine/threonine-protein kinase Nek5 (NEK5, Homo sapiens, UniProt Q6P3R8): 95%
BMP-2-inducible protein kinase (BMP2K, Homo sapiens, UniProt Q9NSY1): 100%
Mitogen-activated protein kinase 11 (MAPK11, Homo sapiens, UniProt Q15759): 92%
Epidermal growth factor receptor (EGFR, Homo sapiens, UniProt P00533, del746-750): 100%
Wee1-like protein kinase (WEE1, Homo sapiens, UniProt P30291): 87%
Mitogen-activated protein kinase kinase kinase 4 (MAP3K4, Homo sapiens, UniProt Q9Y6R4): 80%
Cyclin-dependent kinase 17 (CDK17, Homo sapiens, UniProt Q00537): 86%
Casein kinase II subunit alpha' (CSNK2A2, Homo sapiens, UniProt P19784): 97%
Ephrin type-A receptor 7 (EPHA7, Homo sapiens, UniProt Q15375): 96%
Cyclin-dependent kinase 13 (CDK13, Homo sapiens, UniProt Q14004): 100%
Phosphatidylinositol 4,5-bisphosphate 3-kinase catalytic subunit alpha isoform (PIK3CA, Homo sapiens, UniProt P42336, Q546K): 70%
Non-receptor tyrosine-protein kinase TYK2, JH1 (TYK2, Homo sapiens, UniProt P29597): 100%
Serine/threonine-protein kinase WNK3 (WNK3, Homo sapiens, UniProt Q9BYP7): 99%
Mitogen-activated protein kinase kinase kinase 15 (MAP3K15, Homo sapiens, UniProt Q6ZN16): 100%

Study 2 — organism: Sarcocystis neurona; read-out: parasite growth; concentration: 10 µM; time: 96 h; notes: first screen; endpoint: inhibition
Cc1ccc(C)c(OCCCC(C)(C)C(=O)O)c1: 8.9%
COC(=O)C1=C(C)NC(C)=C(C(=O)OCC(C)C)C1c1ccccc1[N+](=O)[O-] (stereo not shown): 15.3%
CS(=O)(=O)c1ccc(C2=C(c3ccccc3)C(=O)OC2)cc1: 0.9%
Nc1nc(N)nc(-c2cc(Cl)ccc2Cl)n1: -24.3%
COc1cc(C)nc(-n2nc(C)cc2OC)n1: 6.7%
CN1CCN(C2=Nc3cc(F)ccc3Cc3ccccc32)CC1: 10.4%

Study 3 — read-out: enzyme activity; concentration: 10 µM; reference: untreated control; endpoint: remaining activity
Compound: Cc1sc(C(=O)NC2COC2)cc1-n1cc(NC(=O)Nc2c(F)cccc2Cl)cn1
G protein-coupled receptor kinase 4 (GRK4, Homo sapiens, UniProt P32298): 108%
Tyrosine-protein kinase receptor UFO (AXL, Homo sapiens, UniProt P30530): 85.7%
Calcium/calmodulin-dependent protein kinase type 1G (CAMK1G, Homo sapiens, UniProt Q96NX5): 92.5%
Dual specificity testis-specific protein kinase 2 (TESK2, Homo sapiens, UniProt Q96S53): 97.4%
Dual specificity mitogen-activated protein kinase kinase 3 (MAP2K3, Homo sapiens, UniProt P46734): 82%

Study 4 — host: mouse; matrix: microsomes or S9; concentration: 2 µM; time: 0.5 h; endpoint: remaining compound
Cc1ccc(Cl)c(OCC(O)Cn2cnc3cc(C)c(C)cc32)c1 (stereo not shown): < 1%
N#Cc1c(-c2cccs2)cc(=O)[nH]c1SCC(=O)c1ccc(Br)cc1: 94.1%
Cc1ccc(N2C(=O)c3[nH]nc(C)c3C2c2ccc(F)cc2)cc1 (stereo not shown): 47.2%
CC(NCc1cccc(OCc2cccnc2)c1)c1ccc2c(c1)OCCCO2 (stereo not shown): 0.0217%
CC(C)C(NCc1cc(=O)n(C)c(=O)n1C)c1ccc(C2CCCCC2)cc1 (stereo not shown): 0.431%
COC(=O)/C(=C(/F)OCC(=O)N(C)c1ccc(F)cc1)c1ccc(OC)cc1: 3.79%

For quick reference, copied from above (study 1):
Ephrin type-A receptor 7 (EPHA7, Homo sapiens, UniProt Q15375): 96%
Cyclin-dependent kinase 17 (CDK17, Homo sapiens, UniProt Q00537): 86%
Mitogen-activated protein kinase 11 (MAPK11, Homo sapiens, UniProt Q15759): 92%
